Assay results collected from several papers.
Compare with care: the assays were run in different laboratories. Numbers after ± are the reported error.
Sequence of UniProt P01024 (whole entry, looked up): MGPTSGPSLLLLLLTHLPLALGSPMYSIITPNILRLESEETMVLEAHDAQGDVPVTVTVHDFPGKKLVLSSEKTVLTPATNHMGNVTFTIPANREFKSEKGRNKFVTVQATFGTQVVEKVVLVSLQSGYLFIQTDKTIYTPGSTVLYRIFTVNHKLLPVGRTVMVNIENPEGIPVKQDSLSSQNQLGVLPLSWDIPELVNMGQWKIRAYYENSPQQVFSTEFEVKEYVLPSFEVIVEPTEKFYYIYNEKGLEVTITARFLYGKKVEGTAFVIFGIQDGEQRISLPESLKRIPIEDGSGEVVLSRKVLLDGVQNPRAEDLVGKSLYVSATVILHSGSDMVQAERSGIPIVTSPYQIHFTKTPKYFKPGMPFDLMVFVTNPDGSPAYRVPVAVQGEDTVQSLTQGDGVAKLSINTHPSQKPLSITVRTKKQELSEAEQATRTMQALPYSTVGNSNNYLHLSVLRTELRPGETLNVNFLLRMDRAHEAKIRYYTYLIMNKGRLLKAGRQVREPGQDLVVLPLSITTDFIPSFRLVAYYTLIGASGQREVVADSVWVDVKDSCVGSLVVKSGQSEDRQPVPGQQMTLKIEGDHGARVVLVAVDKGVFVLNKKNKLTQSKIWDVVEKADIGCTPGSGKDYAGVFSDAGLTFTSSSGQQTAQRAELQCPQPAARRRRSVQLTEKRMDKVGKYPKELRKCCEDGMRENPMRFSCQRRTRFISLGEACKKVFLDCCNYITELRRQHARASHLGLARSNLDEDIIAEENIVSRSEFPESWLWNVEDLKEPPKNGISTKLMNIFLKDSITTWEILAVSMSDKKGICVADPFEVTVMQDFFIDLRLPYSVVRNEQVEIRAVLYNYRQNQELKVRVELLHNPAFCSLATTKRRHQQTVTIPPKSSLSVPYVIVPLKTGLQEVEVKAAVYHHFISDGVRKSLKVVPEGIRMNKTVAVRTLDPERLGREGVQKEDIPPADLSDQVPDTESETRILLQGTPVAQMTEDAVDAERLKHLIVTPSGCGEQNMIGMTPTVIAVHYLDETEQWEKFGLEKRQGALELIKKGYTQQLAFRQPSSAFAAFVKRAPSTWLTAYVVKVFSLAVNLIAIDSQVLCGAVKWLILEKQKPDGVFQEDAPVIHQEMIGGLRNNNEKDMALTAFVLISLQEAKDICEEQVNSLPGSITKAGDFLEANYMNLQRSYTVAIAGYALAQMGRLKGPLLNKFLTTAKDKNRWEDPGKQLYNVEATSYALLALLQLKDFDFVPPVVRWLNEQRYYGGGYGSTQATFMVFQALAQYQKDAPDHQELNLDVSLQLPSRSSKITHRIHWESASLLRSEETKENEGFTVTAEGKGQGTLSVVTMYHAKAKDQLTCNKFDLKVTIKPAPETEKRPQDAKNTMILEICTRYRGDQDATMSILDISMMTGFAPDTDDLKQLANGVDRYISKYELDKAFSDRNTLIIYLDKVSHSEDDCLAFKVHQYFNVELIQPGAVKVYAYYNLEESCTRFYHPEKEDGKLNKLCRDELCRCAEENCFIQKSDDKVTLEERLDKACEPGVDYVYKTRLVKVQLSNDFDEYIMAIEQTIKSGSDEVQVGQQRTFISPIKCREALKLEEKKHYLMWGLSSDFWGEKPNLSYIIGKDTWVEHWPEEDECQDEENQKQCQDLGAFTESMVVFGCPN
Sequence of UniProt Q9NYL2 (whole entry, looked up): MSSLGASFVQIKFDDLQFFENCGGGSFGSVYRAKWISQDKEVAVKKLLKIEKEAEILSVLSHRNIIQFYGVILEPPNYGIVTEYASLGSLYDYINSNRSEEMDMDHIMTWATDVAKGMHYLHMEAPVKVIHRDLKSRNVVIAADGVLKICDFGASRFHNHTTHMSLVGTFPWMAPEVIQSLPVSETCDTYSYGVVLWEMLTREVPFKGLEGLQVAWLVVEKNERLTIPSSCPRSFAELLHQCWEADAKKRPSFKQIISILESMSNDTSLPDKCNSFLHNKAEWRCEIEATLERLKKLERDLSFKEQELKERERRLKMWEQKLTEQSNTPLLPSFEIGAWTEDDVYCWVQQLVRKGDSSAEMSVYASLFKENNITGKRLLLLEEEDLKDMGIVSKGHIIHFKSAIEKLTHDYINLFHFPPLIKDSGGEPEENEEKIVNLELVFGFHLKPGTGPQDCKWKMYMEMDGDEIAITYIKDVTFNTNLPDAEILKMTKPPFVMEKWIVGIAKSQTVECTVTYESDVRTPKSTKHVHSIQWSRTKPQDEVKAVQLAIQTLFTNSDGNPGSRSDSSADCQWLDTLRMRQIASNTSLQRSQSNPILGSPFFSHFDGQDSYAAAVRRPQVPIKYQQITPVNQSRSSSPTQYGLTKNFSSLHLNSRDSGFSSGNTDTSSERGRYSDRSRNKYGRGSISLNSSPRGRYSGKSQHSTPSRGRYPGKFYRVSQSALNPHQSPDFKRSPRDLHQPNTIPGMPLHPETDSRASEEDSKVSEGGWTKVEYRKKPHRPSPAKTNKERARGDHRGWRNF
Sequence of UniProt P06186 (whole entry, looked up): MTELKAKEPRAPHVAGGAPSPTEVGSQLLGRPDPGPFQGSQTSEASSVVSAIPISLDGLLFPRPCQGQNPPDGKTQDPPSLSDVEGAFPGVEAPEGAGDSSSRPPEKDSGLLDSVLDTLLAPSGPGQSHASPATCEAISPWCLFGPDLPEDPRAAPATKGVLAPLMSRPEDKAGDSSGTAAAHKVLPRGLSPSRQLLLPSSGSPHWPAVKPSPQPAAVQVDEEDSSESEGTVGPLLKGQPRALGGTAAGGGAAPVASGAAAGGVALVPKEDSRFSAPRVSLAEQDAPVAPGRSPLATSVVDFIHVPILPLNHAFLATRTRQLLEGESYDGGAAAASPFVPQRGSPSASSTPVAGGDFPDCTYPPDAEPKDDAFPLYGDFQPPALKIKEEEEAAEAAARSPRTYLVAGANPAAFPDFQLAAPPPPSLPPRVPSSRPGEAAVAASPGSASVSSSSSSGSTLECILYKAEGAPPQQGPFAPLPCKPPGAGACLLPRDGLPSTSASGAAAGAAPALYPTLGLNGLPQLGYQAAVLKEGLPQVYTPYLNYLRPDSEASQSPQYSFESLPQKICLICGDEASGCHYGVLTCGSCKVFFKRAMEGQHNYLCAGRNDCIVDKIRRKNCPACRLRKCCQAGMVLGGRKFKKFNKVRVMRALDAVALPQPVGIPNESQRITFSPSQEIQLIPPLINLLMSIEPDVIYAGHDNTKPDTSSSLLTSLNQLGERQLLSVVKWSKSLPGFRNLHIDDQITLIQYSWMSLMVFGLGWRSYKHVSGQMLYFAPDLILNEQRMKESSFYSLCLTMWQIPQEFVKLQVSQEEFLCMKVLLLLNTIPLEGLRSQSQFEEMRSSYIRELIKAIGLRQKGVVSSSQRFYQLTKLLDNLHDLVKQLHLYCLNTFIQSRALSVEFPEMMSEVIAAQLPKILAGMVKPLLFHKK
Sequence of UniProt P21397 (whole entry, looked up): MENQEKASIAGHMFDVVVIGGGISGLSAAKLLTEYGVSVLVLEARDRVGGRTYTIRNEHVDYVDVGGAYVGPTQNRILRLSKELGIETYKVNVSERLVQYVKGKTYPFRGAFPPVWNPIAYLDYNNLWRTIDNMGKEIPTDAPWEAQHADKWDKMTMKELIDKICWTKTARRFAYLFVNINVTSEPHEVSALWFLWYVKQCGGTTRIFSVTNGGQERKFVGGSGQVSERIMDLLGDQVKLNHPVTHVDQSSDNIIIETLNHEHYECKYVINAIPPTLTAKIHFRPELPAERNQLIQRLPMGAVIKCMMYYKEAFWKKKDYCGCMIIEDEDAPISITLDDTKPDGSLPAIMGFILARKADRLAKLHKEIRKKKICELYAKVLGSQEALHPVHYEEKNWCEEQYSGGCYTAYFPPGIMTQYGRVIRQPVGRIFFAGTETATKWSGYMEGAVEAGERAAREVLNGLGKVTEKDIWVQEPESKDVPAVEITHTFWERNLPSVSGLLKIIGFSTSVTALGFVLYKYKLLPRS
Sequence of UniProt P41595 (whole entry, looked up): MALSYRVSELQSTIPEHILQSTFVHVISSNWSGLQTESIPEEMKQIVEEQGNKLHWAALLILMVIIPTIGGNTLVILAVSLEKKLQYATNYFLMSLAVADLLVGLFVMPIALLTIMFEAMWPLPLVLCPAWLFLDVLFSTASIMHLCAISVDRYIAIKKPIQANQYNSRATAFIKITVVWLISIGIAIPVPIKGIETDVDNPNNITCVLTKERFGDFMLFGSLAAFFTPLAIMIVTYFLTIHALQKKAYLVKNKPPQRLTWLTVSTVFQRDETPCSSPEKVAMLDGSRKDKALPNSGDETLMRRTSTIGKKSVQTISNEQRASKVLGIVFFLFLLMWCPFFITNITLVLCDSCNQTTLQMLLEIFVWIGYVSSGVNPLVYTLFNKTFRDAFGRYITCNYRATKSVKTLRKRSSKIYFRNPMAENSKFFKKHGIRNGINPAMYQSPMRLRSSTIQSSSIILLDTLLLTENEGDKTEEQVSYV
Sequence of UniProt Q9Y294 (whole entry, looked up): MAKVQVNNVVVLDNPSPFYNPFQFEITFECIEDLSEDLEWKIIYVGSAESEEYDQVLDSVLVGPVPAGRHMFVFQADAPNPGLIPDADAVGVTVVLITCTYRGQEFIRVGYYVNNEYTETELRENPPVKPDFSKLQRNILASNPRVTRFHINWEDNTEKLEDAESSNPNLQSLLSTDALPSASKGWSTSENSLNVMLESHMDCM
Sequence of UniProt P40337 (whole entry, unmodified, looked up): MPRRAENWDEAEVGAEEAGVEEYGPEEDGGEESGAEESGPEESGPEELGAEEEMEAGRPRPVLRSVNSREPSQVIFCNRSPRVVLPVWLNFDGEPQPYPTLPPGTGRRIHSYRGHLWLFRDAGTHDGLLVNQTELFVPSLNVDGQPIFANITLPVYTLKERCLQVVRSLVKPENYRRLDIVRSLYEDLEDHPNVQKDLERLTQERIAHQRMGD

| target | assay | test system | setting | scale | endpoint | result | Compound |
| --- | --- | --- | --- | --- | --- | --- | --- |
| Gag-Pol polyprotein, integrase core 50-213 (gag-pol, Human immunodeficiency virus type 1 group M subtype B, UniProt P04585) | DNA binding, fluorescence anisotropy | integrase CC | compound:IN ratio 3:1, added: 10 mM Mg2+, U5 DNA |  | Hill coefficient | 1.32 | NS(=O)(=O)c1ccc(NC(=O)c2ccccc2SSc2ccccc2C(=O)Nc2ccc(S(N)(=O)=O)cc2)cc1 |
| Amine oxidase [flavin-containing] A (MAOA, Homo sapiens, UniProt P21397) | enzyme activity, inhibitor |  | 10 µM |  | remaining activity | 85.7% | COc1ccc2c(c1)/C(=N/N=C/c1ccc(OCc3ccccc3)cc1)C(=O)N2 |
| Histone chaperone ASF1A (Homo sapiens, UniProt Q9Y294) | isothermal titration calorimetry |  | concentration not given, pH 7.5, 20 °C |  | binding enthalpy | -10.5 ± 0.8 kcal/mol | CC[C@H](C)[C@H](NC(=O)[C@H](CCCNC(=N)N)NC(=O)[C@H](CCCNC(=N)N)NC(=O)[C@H](C)NC(=O)[C@H](CC(C)C)NC(=O)[C@H](CCCNC(=N)N)NC(=O)[C@H](C)NC(=O)[C@H](Cc1c[nH]c2ccccc12)NC(=O)[C@H](CCCCN)NC(=O)[C@H](CCC(=O)O)NC(C)=O)C(=O)N[C@@H](C)C(N)=O |
| Progesterone receptor (Oryctolagus cuniculus, UniProt P06186) | endometrial transformation, McPhail test | rabbit | oral, added: progesterone |  | full efficacy dose | 3 mg/kg | CC12CC(c3ccc(C(=O)CO)cc3)C3=C4CCC(=O)C=C4CCC3C1CCC2(O)C(F)(F)C(F)(F)F (centres unmarked) |
| 5-hydroxytryptamine receptor 2B (HTR2B, Homo sapiens, UniProt P41595) | β-arrestin recruitment, agonist |  |  |  | Emax | 93.7% | CCOC(=O)c1cnc(CNCCc2c[nH]c3cccc(C)c23)s1 |
| laccase (Trametes versicolor) | substrate, Hill kinetic model |  | product formation |  | Hill coefficient | 1.22 | O=C1c2ccc(O)cc2O[C@@H](c2ccc(O)cc2)[C@@H]1[C@@H]1C(=O)c2ccc(O)cc2O[C@H]1c1ccc(O)cc1 |
| PA-I galactophilic lectin (lecA, Pseudomonas aeruginosa, UniProt Q05097) | isothermal titration calorimetry |  | 25 °C |  | ΔG | -7.1 ± 0.1 kcal/mol | [N-]=[N+]=N[C@H]1[C@H](O)[C@@H](O)[C@H](n2cc(CO[C@@H]3O[C@H](CO)[C@H](O)[C@H](O)[C@H]3O)nn2)O[C@@H]1CO |
| Mitogen-activated protein kinase kinase kinase 20 (MAP3K20, Homo sapiens, UniProt Q9NYL2) | inhibitor, SILAC-ABPP acylphosphate-ATP | HEK293T lysate, transfected | 100 µM, 30 min |  | probe labelling | decreased | CCCCCC(O)/C=C/C=O (centres unmarked) |
| Ribosomal protein S6 kinase alpha-3, C-terminal kinase domain (Rps6ka3, Mus musculus, UniProt P18654) | kinetic trap, LC-MS |  | 10 µM, added: 100 µM FMK trap |  | dissociation half-life | 4.08 h | Cc1ccc(-c2c(/C=C(\C#N)C(=O)NC(C)C)n(CCCO)c3ncnc(N)c23)cc1 |
| BRD2/VHL, BD1; with VCB (Homo sapiens, UniProt P25440+P40337, K107A/Q101K/V106E) | ITC |  | 25 °C, ternary complex with VCB, BRD2 BD1 KEA | baseline: binary Kd over ternary Kd | cooperativity | 8 | Cc1ncsc1-c1ccc(CNC(=O)[C@@H]2C[C@@H](O)CN2C(=O)[C@@H](NC(=O)COCCOCCOCCNC(=O)C[C@@H]2N=C(c3ccc(Cl)cc3)c3c(sc(C)c3C)-n3c(C)nnc32)C(C)(C)C)cc1 |
| Complement C3, C3b fragment (Homo sapiens, UniProt P01024) | SPR |  | 25 °C | baseline: [Trp(Me)4]-Ac-compstatin | relative association rate constant | 1 | CC[C@H](C)[C@H](NC(=O)[C@@H]1CSSC[C@H](NC(=O)[C@@H](NC(C)=O)[C@@H](C)CC)C(=O)N[C@@H](C(C)C)C(=O)N[C@@H](Cc2cn(C)c3ccccc23)C(=O)N[C@@H](CCC(N)=O)C(=O)N[C@@H](CC(=O)O)C(=O)N[C@@H](Cc2c[nH]c3ccccc23)C(=O)NCC(=O)N[C@@H](C)C(=O)N[C@@H](Cc2c[nH]cn2)C(=O)N[C@@H](CCCNC(=N)N)C(=O)N1)C(N)=O |
